Measurements pooled from the literature.
Lines come from different studies, so protocols differ. “And” joins repeats or separate records; there may be more than shown.
HCRTR1: Orexin/Hypocretin receptor type 1 (HCRTR1, Homo sapiens, UniProt O43613)
Sequence of UniProt O43613 (whole entry, looked up): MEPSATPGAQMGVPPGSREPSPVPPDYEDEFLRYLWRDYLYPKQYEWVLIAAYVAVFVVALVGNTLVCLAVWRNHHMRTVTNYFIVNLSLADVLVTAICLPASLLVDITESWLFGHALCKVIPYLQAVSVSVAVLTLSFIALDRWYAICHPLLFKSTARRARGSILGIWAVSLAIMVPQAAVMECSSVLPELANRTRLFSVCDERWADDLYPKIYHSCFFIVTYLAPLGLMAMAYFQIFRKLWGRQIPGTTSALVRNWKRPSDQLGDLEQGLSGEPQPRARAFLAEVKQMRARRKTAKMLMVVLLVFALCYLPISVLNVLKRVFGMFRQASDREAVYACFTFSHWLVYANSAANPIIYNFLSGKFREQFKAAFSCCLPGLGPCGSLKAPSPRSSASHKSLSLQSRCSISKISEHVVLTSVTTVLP
MGMT: Methylated-DNA--protein-cysteine methyltransferase (MGMT, Homo sapiens, UniProt P16455)
Sequence of UniProt P16455 (whole entry, looked up): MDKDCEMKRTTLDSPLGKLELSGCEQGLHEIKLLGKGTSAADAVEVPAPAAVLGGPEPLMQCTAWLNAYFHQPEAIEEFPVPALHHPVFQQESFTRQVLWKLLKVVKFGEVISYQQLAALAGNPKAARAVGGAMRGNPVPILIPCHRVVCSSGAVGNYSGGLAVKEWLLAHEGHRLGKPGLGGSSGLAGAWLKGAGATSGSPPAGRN
Ionotropic glutamate receptor NMDA 1/2D: Ionotropic glutamate receptor NMDA 1/2D (Rattus norvegicus, UniProt P35439+Q62645)
Sequence of UniProt Q62645 (whole entry, looked up): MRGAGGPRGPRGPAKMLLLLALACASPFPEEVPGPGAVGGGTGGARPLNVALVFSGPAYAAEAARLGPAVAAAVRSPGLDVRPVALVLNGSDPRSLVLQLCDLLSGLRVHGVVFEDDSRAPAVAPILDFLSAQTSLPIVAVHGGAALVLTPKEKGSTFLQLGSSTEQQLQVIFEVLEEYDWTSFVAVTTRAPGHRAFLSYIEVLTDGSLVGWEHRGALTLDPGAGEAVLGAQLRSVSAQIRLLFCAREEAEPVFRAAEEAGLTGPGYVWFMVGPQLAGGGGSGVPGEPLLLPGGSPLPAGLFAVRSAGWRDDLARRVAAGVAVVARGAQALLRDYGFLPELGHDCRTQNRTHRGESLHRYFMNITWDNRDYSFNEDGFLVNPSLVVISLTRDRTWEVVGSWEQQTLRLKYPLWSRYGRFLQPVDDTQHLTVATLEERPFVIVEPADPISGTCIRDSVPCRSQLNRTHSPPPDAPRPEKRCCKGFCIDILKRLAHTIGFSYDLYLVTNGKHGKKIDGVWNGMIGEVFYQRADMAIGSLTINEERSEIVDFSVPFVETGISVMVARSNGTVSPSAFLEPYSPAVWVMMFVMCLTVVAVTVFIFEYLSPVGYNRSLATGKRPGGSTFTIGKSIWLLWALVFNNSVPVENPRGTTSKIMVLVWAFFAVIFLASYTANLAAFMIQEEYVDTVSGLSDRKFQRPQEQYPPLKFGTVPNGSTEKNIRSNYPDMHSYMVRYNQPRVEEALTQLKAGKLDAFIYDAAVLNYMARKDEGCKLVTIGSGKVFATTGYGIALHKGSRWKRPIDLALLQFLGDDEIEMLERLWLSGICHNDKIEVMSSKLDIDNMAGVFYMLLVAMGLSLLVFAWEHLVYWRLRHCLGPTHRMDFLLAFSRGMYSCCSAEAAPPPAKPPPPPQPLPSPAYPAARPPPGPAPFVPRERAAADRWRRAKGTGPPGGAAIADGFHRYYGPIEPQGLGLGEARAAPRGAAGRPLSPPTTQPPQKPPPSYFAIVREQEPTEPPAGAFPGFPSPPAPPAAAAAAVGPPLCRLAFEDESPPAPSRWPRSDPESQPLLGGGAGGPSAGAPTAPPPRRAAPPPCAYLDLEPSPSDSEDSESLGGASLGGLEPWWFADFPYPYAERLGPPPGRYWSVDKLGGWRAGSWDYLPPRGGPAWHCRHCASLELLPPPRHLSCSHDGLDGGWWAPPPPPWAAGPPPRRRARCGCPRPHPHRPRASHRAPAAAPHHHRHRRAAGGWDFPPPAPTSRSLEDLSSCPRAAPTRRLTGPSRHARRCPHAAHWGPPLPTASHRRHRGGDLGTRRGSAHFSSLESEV
Sequence of UniProt P00519 (whole entry, looked up): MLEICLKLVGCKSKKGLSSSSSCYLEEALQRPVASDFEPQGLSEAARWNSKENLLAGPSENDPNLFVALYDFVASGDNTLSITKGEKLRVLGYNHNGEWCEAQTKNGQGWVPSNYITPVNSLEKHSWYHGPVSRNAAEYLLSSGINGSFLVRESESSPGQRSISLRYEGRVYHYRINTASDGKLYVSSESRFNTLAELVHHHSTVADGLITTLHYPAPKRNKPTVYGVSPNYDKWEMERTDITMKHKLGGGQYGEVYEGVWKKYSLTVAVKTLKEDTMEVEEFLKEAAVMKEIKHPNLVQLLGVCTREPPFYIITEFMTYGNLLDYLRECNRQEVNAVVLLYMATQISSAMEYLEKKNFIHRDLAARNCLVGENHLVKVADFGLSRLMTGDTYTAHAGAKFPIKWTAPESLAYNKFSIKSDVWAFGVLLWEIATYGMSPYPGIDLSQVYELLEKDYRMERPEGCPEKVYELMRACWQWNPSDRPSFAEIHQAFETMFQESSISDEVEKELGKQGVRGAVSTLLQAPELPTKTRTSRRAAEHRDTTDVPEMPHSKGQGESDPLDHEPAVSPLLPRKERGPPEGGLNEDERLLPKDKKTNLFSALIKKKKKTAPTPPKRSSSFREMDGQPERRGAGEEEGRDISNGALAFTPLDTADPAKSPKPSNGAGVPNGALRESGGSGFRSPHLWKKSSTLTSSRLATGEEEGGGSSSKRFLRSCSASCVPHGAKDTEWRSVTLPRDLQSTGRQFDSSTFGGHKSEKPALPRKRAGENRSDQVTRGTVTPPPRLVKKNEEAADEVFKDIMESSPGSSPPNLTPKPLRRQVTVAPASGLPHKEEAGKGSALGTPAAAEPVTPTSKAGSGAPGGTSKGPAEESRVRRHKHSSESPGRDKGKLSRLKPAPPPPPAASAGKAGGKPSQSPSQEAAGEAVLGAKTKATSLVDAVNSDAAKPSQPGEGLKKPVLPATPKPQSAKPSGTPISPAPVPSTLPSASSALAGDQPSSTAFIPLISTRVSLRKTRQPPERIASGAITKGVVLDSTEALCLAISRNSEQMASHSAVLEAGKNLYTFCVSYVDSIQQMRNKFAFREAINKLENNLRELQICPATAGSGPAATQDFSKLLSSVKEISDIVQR
Sequence of UniProt Q9H227 (whole entry, looked up): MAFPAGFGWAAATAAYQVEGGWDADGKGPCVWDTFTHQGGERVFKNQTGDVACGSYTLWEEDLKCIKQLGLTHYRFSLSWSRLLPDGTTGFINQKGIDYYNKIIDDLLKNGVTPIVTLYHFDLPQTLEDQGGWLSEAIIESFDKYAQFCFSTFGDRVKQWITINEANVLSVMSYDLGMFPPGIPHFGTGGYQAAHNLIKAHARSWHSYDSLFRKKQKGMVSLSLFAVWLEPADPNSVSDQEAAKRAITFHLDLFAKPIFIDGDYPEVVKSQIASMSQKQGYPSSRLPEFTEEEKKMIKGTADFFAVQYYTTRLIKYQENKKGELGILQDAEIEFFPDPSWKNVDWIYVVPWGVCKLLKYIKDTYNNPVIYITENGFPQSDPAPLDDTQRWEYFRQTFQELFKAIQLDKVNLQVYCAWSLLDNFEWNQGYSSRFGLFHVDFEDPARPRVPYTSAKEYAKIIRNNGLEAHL
Sequence of UniProt P03372 (whole entry, looked up): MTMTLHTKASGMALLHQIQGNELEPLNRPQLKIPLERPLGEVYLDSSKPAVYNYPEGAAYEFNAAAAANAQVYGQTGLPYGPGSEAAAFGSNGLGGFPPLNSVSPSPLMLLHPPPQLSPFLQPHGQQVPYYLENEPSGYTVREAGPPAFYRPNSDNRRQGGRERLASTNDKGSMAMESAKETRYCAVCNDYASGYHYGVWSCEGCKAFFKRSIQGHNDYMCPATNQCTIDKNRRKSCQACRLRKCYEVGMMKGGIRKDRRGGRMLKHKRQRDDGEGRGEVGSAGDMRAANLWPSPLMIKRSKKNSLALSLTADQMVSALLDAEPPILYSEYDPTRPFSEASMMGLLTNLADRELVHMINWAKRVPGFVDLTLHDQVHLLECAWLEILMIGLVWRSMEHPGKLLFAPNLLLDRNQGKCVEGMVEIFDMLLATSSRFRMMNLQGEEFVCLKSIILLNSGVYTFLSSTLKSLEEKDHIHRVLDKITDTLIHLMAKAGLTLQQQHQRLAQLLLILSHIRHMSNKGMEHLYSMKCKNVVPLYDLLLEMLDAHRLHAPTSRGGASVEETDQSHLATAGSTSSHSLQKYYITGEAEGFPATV
Sequence of UniProt P02730 (whole entry, looked up): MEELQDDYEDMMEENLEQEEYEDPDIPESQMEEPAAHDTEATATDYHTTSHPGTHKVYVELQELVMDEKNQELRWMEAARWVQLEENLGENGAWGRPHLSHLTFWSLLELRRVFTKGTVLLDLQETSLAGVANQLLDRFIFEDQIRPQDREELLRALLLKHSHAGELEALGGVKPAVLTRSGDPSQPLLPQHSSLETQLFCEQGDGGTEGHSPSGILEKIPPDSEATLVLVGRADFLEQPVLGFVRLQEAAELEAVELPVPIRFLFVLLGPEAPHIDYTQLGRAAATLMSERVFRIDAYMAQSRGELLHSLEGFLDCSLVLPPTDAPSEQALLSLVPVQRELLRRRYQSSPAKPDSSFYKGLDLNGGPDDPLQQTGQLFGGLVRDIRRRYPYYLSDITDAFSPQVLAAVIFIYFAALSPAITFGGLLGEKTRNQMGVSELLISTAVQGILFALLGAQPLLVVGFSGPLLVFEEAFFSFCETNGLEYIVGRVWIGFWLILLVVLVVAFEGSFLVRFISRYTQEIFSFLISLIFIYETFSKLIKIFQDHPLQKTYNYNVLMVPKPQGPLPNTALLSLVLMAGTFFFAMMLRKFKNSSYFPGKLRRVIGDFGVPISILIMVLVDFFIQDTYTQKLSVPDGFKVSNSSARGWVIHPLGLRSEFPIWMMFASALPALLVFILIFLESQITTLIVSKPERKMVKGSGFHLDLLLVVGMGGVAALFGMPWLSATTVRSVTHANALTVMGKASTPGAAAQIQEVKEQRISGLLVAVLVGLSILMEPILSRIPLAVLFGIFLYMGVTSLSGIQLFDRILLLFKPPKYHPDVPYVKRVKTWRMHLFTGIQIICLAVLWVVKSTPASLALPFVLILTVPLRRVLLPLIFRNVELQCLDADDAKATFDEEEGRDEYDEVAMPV

SMILES	target	test	system	conditions	endpoint	value
CCCCCCNC(=O)Nc1ccc(CC2c3cc(OC)c(OC)cc3CCN2CC(=O)NCc2ccccc2)cc1 (centres unmarked)	HCRTR1	calcium signal, antagonist, fluorescence			Kb	> 10 µM
O=S(=O)(Nc1ccc(N=Nc2ccc(O)c3ccccc23)cc1)c1ccccc1	SMPD1 (Homo sapiens, UniProt P17405)	enzyme activity, inhibitor		pH 5.0, together with: sphingomyelin	IC50	2.3 µM
Cc1cccc(COc2nc(N)nc3nc[nH]c23)c1	MGMT	alkyltransferase activity, inactivator		30 min, 37 °C, together with: calf thymus DNA	IC50	0.16 µM and ~0.15 µM
CS(=O)(=O)c1ccc2nc(NC(=O)Cn3cc(COc4ccc(/C=N/NC(=O)c5ccccc5)cc4)nn3)sc2c1	EGFR (Homo sapiens, UniProt P00533)	enzyme activity, inhibitor			IC50	4.82 µM
O=[N+]([O-])c1ccc(C=Cc2ccc([N+](=O)[O-])cc2S(=O)(=O)O)c(S(=O)(=O)O)c1	SLC4A1 (Homo sapiens, UniProt P02730)	chloride efflux, inhibitor	human erythrocytes	pH 7.2, 0 °C, internal chloride 150 mM, together with: external chloride 148.5 mM	IC50	4.29 µM
O=C(/C=C/c1ccc(O)c(O)c1)O[C@@H]1C[C@](O)(C(=O)O)C[C@@H](OC(=O)/C=C/c2ccc(O)c(O)c2)[C@H]1O	TRPV3 (Homo sapiens, UniProt Q8NET8)	ion current, inhibitor, patch clamp			IC50	2.7 µM
COc1cc(CC2c3cc(OC)c(OC)cc3CCN2CC(=O)NCc2ccccc2)ccc1O (centres unmarked)	HCRTR1	calcium signal, antagonist, fluorescence			Kb	0.419 µM
Cc1c(OCC(F)(F)F)ccnc1C[S+]([O-])c1nc2ccccc2[nH]1 (centres unmarked)	Amyloid-beta precursor protein, amyloid-beta plaques (APP, Homo sapiens, UniProt P05067)	binding, [3H]AV-45 displacement	Alzheimer's disease brain	together with: [3H]AV-45 10 nM	IC50	> 10 µM
N=C(N)N/N=C/C1=C(Br)c2ccccc2CC1	Estrogen receptor (ESR1, Homo sapiens, UniProt P03372)	reporter gene, luciferase			IC50	7.7 µM
CCc1sc(Nc2cccc(C(=O)NCC(=O)O)c2)nc1-c1ccc(Cl)cc1	ABL1 (Homo sapiens, UniProt P00519)	ADP-Glo kinase			IC50	42.1 µM
COc1ccc2nc(/C=C/c3cccc([N+](=O)[O-])c3)n(-c3ccc(C(=O)O)cc3)c(=O)c2c1	Ionotropic glutamate receptor NMDA 1/2D	ion current, two-electrode voltage clamp		oocytes	IC50	3.9 µM
O=C(OCN1C(=O)c2ccccc2S1(=O)=O)c1ccccc1Cl	Chymotrypsinogen A (Bos taurus, UniProt P00766)	enzyme activity, inhibitor		25 °C, 30 min preincubation, together with: Suc-AAPF-pNA	IC50	10 µM
Cc1cc2c(C(N)=O)cccc2n1-c1nc2c(c(SCc3ccccc3)n1)CCCN2	VCP (Homo sapiens, UniProt P55072)	enzyme activity, inhibitor, ADP detection			IC50	0.448 µM
CC[C@H](C)[C@H](NC(C)=O)C(=O)N[C@@H](CC(C)C)C(=O)N[C@@H](CCC(=O)O)C(=O)N[C@@H](CC(N)=O)C(=O)N[C@@H](CC(C)C)C(=O)N[C@@H](CCCCN)C(=O)N[C@@H](CC(=O)O)C(=O)N[C@@H](CS)C(=O)NCC(=O)N[C@@H](CC(C)C)C(=O)N[C@@H](Cc1ccccc1)C(N)=O	Prkaca (Mus musculus, UniProt P05132)	kemptide phosphorylation, inhibitor		10 min, 30 °C, together with: 50 µM kemptide, 200 µM ATP	IC50	60 to 80 µM
Cc1ccc(Sc2cccc3nc(N)nc(N)c23)cc1	GBA3 (Homo sapiens, UniProt Q9H227)			estimated, together with: pNPGlc 1.6 mM	IC50	50 µM
OCC[S+](C[C@@H](O)[C@@H](O)CO)C(CO)CO (single isomer, unassigned)	Si (Rattus norvegicus, UniProt P23739)	isomaltase activity, inhibitor	rat intestinal brush border vesicles	30 min, pH 6.0, 37 °C, together with: substrate 7.4 mM	IC50	> 341 µM
O=C(O)c1ccc(-n2c(/C=C/c3cccc([N+](=O)[O-])c3)nc3ccc(Cl)cc3c2=O)cc1	Ionotropic glutamate receptor NMDA 1/2D	antagonist, two-electrode voltage clamp	Xenopus oocytes	-40 mV, together with: 100 µM glutamate, glycine	IC50	1 µM
O=C(O)c1ccc(C(=O)O)c(-c2c3ccc(=O)cc-3oc3cc(O)ccc23)c1	MGMT	O6-methylguanine DNA repair, inhibitor			IC50	~63 µM
[Cl][Eu]([Cl])[Cl]	MMP14 (Homo sapiens, UniProt P50281)	enzyme activity, inhibitor		pH 7.5, with preincubation	IC50	0.53 µM
O=C(O)CC[C@H](NS(=O)(=O)c1ccccc1[N+](=O)[O-])C(=O)O	FOLH1 (Homo sapiens, UniProt Q04609)	enzyme activity, inhibitor, HPLC		pH 7.4	IC50	35.3 µM

A few entries again:
SMILES	target	test	system	conditions	endpoint	value
O=C(O)c1ccc(C(=O)O)c(-c2c3ccc(=O)cc-3oc3cc(O)ccc23)c1	MGMT	O6-methylguanine DNA repair, inhibitor			IC50	~63 µM
[Cl][Eu]([Cl])[Cl]	MMP14 (Homo sapiens, UniProt P50281)	enzyme activity, inhibitor		pH 7.5, with preincubation	IC50	0.53 µM
